Measured values collected from several papers.
Each numbered part is a random draw from the data of one study; scales do not carry over between parts.
Sequence of UniProt Q8IW41 (whole entry, looked up): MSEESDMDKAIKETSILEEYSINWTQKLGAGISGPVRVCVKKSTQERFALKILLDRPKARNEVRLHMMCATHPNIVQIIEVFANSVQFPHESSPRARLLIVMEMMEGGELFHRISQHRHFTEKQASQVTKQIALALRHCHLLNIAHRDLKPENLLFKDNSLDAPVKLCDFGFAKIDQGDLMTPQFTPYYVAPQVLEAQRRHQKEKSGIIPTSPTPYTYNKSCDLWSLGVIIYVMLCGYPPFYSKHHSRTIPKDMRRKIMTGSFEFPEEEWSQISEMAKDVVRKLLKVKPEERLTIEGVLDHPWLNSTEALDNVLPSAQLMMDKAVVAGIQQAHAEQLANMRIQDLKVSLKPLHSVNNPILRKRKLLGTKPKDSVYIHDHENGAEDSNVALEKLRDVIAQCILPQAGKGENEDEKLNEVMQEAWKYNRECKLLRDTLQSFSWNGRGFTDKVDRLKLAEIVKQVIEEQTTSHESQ
Sequence of UniProt P30291 (whole entry, looked up): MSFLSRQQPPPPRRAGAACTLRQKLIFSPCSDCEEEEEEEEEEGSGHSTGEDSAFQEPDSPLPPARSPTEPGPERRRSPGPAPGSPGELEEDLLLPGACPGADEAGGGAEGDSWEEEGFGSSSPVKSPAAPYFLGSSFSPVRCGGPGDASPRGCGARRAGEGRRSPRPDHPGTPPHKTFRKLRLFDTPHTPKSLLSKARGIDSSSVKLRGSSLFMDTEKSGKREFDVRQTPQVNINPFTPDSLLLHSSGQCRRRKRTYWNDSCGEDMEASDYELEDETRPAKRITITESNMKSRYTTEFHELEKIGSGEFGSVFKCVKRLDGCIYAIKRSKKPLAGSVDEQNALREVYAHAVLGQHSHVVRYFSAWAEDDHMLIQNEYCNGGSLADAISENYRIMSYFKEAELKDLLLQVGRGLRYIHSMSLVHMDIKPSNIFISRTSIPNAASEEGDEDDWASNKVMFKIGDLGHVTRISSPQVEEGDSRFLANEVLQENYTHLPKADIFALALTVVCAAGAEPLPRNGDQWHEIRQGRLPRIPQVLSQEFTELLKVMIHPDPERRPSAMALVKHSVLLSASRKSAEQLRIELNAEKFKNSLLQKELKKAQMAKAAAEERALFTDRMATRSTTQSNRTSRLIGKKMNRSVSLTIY
Sequence of UniProt Q8IVW4 (whole entry, looked up): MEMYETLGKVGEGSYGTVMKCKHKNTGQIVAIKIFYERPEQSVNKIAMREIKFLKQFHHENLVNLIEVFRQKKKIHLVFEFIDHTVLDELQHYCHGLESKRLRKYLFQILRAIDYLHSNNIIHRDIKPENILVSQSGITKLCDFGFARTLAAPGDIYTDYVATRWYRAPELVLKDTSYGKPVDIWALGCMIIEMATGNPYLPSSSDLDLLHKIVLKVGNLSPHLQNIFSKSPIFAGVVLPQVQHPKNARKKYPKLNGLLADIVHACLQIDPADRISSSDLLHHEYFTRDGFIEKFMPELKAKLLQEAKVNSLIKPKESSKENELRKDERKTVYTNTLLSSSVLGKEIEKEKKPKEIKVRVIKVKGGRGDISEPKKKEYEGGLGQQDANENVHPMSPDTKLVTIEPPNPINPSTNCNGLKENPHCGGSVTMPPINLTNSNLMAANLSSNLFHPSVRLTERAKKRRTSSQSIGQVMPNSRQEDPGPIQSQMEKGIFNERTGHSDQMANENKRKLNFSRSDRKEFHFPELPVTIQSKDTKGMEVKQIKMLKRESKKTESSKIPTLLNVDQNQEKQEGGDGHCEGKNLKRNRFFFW
Sequence of UniProt P78356 (whole entry, looked up): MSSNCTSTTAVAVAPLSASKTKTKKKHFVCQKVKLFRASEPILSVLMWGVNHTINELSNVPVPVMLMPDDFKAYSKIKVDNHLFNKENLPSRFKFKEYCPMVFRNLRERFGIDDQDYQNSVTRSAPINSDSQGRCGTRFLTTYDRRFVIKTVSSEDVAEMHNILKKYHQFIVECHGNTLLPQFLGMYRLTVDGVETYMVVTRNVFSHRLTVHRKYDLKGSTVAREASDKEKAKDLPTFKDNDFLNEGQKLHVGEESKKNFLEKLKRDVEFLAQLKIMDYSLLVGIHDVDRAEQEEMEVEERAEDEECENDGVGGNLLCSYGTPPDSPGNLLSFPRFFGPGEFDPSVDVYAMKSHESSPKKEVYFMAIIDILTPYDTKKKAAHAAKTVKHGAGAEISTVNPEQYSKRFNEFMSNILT
Sequence of UniProt P00519 (whole entry, unmodified, looked up): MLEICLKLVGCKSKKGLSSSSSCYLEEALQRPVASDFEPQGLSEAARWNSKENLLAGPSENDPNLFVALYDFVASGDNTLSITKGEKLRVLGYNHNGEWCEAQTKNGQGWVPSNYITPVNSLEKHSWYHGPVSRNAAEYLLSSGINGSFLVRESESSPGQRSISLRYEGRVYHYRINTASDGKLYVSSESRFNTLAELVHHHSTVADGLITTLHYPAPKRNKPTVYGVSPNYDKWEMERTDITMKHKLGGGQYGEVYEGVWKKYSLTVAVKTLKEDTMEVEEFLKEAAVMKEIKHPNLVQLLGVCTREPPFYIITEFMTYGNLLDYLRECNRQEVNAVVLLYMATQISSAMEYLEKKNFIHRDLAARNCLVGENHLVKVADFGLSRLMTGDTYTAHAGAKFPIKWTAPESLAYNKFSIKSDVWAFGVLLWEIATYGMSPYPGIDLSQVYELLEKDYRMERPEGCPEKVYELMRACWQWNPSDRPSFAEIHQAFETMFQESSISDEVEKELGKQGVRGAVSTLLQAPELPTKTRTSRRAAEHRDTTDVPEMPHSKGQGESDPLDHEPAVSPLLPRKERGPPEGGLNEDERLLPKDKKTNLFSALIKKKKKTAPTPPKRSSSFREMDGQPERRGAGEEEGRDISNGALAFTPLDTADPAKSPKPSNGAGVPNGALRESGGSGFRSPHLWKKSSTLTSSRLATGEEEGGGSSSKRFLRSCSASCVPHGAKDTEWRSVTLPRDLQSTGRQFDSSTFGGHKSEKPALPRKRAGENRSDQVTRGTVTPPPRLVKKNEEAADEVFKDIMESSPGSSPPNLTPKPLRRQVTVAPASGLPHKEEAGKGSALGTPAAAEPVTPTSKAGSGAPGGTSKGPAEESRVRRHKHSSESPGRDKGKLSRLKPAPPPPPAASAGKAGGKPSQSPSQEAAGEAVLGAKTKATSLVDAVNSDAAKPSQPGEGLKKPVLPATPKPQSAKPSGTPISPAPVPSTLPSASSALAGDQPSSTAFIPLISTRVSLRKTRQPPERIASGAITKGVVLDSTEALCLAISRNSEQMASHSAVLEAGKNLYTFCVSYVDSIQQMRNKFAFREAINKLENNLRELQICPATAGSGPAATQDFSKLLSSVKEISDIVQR
Sequence of UniProt P06239 (whole entry, looked up): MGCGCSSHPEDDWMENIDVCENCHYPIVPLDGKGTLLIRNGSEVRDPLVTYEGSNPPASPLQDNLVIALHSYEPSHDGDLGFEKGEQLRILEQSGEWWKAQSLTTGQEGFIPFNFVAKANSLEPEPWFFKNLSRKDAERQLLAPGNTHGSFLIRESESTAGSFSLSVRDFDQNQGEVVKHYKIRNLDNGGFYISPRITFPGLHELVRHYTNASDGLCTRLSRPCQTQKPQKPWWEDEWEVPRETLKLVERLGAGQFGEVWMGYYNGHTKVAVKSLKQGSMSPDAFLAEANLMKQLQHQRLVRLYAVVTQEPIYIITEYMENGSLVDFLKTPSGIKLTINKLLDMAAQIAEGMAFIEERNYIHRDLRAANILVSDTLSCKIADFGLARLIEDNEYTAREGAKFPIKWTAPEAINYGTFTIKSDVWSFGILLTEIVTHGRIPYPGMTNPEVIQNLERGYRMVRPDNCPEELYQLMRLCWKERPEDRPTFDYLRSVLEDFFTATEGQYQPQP
Sequence of UniProt Q5BJF2 (whole entry, looked up): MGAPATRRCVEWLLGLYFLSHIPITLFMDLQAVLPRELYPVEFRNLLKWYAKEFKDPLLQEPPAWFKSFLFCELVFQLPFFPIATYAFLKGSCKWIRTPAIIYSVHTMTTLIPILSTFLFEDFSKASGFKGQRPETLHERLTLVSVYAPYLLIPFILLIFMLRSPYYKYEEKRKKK
Sequence of UniProt Q15569 (whole entry, looked up): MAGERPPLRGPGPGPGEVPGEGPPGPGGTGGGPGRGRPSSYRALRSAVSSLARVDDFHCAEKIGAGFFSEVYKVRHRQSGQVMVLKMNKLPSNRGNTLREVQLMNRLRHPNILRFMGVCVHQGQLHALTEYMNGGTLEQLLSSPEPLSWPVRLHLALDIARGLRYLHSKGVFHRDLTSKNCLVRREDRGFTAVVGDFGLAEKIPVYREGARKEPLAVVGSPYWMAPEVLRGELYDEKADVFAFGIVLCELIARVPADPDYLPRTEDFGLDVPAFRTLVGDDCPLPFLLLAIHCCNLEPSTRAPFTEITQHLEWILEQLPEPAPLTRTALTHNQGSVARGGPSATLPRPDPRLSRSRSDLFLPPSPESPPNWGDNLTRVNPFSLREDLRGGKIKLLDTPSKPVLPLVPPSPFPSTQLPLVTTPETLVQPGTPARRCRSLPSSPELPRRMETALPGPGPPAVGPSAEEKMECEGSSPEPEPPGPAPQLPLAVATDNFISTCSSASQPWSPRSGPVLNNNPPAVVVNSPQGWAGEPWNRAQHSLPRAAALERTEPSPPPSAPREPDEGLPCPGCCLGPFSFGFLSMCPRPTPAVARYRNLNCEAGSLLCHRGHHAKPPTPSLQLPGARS

Study 1
Structure (SMILES): Cc1ccc(NC(=O)c2ccnc(C(F)(F)F)c2)cc1-c1cc(OCCO)nc(N2CCOCC2)c1
Effect on: binding
Tested at: 1 µM
target	technique	remaining binding [%]
MAP kinase-activated protein kinase 5 (MAPKAPK5, Homo sapiens, UniProt Q8IW41)		100
Tyrosine-protein kinase Lck (LCK, Homo sapiens, UniProt P06239)	competition with immobilised ligand	71
Cyclin-dependent kinase-like 3 (CDKL3, Homo sapiens, UniProt Q8IVW4)	competition with immobilised ligand	93
Phosphatidylinositol 5-phosphate 4-kinase type-2 beta (PIP4K2B, Homo sapiens, UniProt P78356)		100
Uncharacterized serine/threonine-protein kinase SBK3 (SBK3, Homo sapiens, UniProt P0C264)		100
High affinity nerve growth factor receptor (NTRK1, Homo sapiens, UniProt P04629)	competition with immobilised ligand	94
Serine/threonine-protein kinase tousled-like 1 (TLK1, Homo sapiens, UniProt Q9UKI8)		87
Dual specificity testis-specific protein kinase 1 (TESK1, Homo sapiens, UniProt Q15569)	competition with immobilised ligand	100
Wee1-like protein kinase (WEE1, Homo sapiens, UniProt P30291)	competition with immobilised ligand	88
Phosphatidylinositol 4-phosphate 3-kinase C2 domain-containing subunit beta (PIK3C2B, Homo sapiens, UniProt O00750)		100
Insulin-like growth factor 1 receptor (IGF1R, Homo sapiens, UniProt P08069)		100

Study 2
Target: Serine/threonine-protein kinase pim-1 (PIM1, Homo sapiens, UniProt P11309)
Sequence of UniProt P11309 (whole entry, looked up): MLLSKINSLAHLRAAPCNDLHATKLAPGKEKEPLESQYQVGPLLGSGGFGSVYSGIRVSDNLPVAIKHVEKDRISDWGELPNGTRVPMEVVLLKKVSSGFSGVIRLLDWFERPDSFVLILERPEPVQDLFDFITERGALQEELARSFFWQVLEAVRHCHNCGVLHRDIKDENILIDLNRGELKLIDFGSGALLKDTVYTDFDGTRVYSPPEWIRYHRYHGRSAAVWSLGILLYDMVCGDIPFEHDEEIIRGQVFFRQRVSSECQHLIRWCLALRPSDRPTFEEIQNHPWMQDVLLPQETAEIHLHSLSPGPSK
Effect on: enzyme activity
Mode: inhibitor
Tested at: 0.5 µM
Relative to: control
Structure (SMILES)	remaining activity [%]
O=Nc1c(-c2c(O)[nH]c3ccccc23)[nH]c2ccccc12	85.2
O=C(O)/C=C/c1cc(Br)c(Br)c(Br)c1Br	16.2
CC(C)n1cnc2c(Nc3cccc(Cl)c3)nc(NCCO)nc21	93.9
NC(=O)c1cccc(-c2cc(Nc3ccc(OC(F)(F)F)cc3)ncn2)c1	101
O=c1c(-c2ccc(F)cc2)c(-c2ccncc2)[nH]n1-c1ccc(Cl)cc1	101
c1cc(-c2cnn3cc(-c4ccc(OCCN5CCCCC5)cc4)cnc23)ccn1	96.7
COc1cc2c(N3CCN(C(=O)Nc4ccc(OC(C)C)cc4)CC3)ncnc2cc1OCCCN1CCCCC1	97.8
N#CC(c1ccnc(NCCc2cccnc2)n1)c1nc2ccccc2s1 (centres unmarked)	11.6
O=C1NC(=O)/C(=C/c2ccc3c(c2)OC(F)(F)O3)S1	35.9
CC(C)N(CCC(=O)c1ccc2ccccc2c1)Cc1ccccc1	100
NC(=O)c1ccc(-c2nc(-c3ccc4c(c3)OCCO4)c(-c3ccccn3)[nH]2)cc1	97.1

Study 3
Host: human
Medium: microsomes or S9
Tested at: 2 µM
Time: 0.5 h
SMILES	remaining compound [%]
Cc1ccc(S(=O)(=O)Nc2ccc3nc(N4CCN(c5ccccc5)CC4)cc(C(=O)O)c3c2)cc1	71.8
O=C(Cn1nc2c(cc1=O)CCCC2)Nc1nc(-c2ccc3c(c2)OCO3)cs1	68
Cc1ccc(-c2nnco2)cc1N1C(=O)NC(C)(c2ccc(S(C)(=O)=O)cc2)C1=O (centres unmarked)	89.5
Cc1ccc(C/N=C2\C(c3ccc(F)c(F)c3)=Nc3ncnn32)cc1	> 99.9
COc1cc(=O)[nH]cc1C(=O)N1CCCC1C1CCCCC1 (centres unmarked)	58.1
COc1cccc(NC(=O)c2c(C)nc(C)c(C(=O)O)c2-c2ccc(Cl)cc2)c1	17.4
CCC1(C(=O)O)CCCN(C(=O)Cc2nc(C)n[nH]2)C1 (centres unmarked)	> 99
CN(C)c1ccc2c3c(ccc(N(C)C)c13)C(=O)OC2	70.7
Cn1ccnc1/C=N/Nc1nncc2ccccc12	22.5
COCc1cc(=O)n2c(n1)N(Cc1cccc(C#N)c1)CC2	83.2
CN(C)c1nc(N2CCOC3(CCCC3)C2)ncc1F	1.32
Cc1ccccc1N(CC(=O)N1CCN(C/C=C/c2ccccc2)CC1)S(C)(=O)=O	61.5
O=C(c1c(OCC2CC2)cc(=O)n2c1CCCCC2)N1CCc2ccccc2C1	12.8

Further values, each from its own experiment
SMILES	target	test	conditions	scale	measurement	result
C[C@@H]1CN(c2cc(-c3n[nH]c4ccc(OC5(C)CC5)cc34)ncn2)C[C@H](C)O1	5-hydroxytryptamine receptor 5A (HTR5A, Homo sapiens, UniProt P47898)	ligand displacement	10 µM		inhibition	-4.76%
Cn1c(-c2csc(C3CCN(Cc4nc5ncccc5[nH]4)CC3)n2)nc2ccccc21	Sigma intracellular receptor 2 (TMEM97, Homo sapiens, UniProt Q5BJF2)	binding			Ki	152 nM
COc1ccc2c(c1)O[C@H](c1ccc(OC)c(OC)c1)C[C@@H]2NC(=O)C1(c2ccc3c(c2)OC(F)(F)O3)CC1 (single isomer, unassigned)	Tyrosine-protein kinase ABL1 (ABL1, Homo sapiens, UniProt P00519, F317I)	KINOMEscan	1 µM, F317I mutant, nonphosphorylated	relative to: control	remaining binding	93%
